Experimental data gathered from unrelated publications.
Numbered parts are unrelated; each lists some results of a single study.

Block 1
Target: Histone acetyltransferase KAT6A, winged helix 1, GST fusion (KAT6A, Homo sapiens, UniProt Q92794, residues 1-85)
Technique: protein binding microarray
Molecule type: double-stranded DNA, one strand shown
Medium: in vitro
Concentration: not given
Notes: 8-mer, flanks averaged, mean of 2 arrays, mostly near background
Reference: not given
Reading: higher = stronger binding
Measurement: E-score
Residues (chain): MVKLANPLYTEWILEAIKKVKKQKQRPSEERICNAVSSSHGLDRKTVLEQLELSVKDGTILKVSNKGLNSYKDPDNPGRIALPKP
AAAATGGC: 0.0653
CCCCCACC: -0.0694
ACCCGTTG: 0.283
CGGAGAAA: 0.184
CAGTAGCG: 0.243

Block 2
Target: RNA binding protein fox-1 homolog 2, RRM domain, GST-SBP tag (RBFOX2, Homo sapiens, UniProt O43251-10, residues 100-194)
Technique: RNA Bind-n-Seq
Molecule type: RNA
Medium: in vitro
Concentration: 365 nM
Notes: natural RNA segment, single round, ends assumed
Reference: no-protein control
Reading: higher = stronger binding
Measurement: RBNS enrichment (R)
All sequences stand within: GGGAGUUCUACAGUCCGACGAUC … UGGAAUUCUCGGGUGCCAA
Residues (chain): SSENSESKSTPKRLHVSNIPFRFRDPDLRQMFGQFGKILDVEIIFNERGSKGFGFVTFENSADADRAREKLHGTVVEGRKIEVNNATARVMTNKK
CCUGACACAUCAGGCAAUGAAUAAUGGGGCAGAUGACAGGCUGCUUGGUGUCAUUUUCAGGCGGGCCCCUCUCUGAUUCCUCGGUCUGGAAAUAAACGCCAGGAAACAGC: 0.469
UUUGUUUCUUAGAACUUUAACAUUUAUUUUAAUCCUGAAGACACUUUUUUGAUUGUGUUUCGUAAGAGACAACAUGGCCUCCUAAGGUGCAAUCCUGCCGCUAUAGUGAG: 0.686
AGGGGUUGUAGCCUUGCUGGGCAGCCUCUCAGAGCAAGGUUGUUCAGAUCUCCCUUGCUAUUACAGUAGGUUACUAUUAAUGAGGGCAGCACCUGAUGCCUUUUGUACUG: 1.06
AGCACUUAUGUUUACGGAUAUUUUAAACUCUGUUAGAGAGCAGCCUUUGAAAAUCCCCAAUUUGGUUCUGCUUUUUGACCUCUCUCUACCUUUUCAGGGUAAUCUUUGUG: 0.505
CACACCUUGCACAGAGCACUGGUGCUCACACUCUAGUGUGAUCCAAUGAUGUCAACACCCCAAGAAGAUCUACCCAACUAUAUCAAGUUCAGAGAUGGCAAUGGAUGAUG: 0.317
GGUGAGUGGAGACUCAGCCCAGCUGCUCUUGAGCUUGGAUAGUUAUACAUUUUGGUGACUUCUGACUCUCCUUCCACCUCCCCACUGUACACUGUGGUACAGAUAGUUGG: 0.357

Block 3
Target: PABPC1L2, full length, GST fusion (mouse, UniProt A0ABA7IW68)
Technique: RNAcompete
Molecule type: RNA
Medium: in vitro
Concentration: 20 nM
Notes: 7-mer, probes averaged, single round
Reference: mean of 7-mers
Reading: higher = stronger binding
Measurement: 7-mer Z-score
Target sequence (chain): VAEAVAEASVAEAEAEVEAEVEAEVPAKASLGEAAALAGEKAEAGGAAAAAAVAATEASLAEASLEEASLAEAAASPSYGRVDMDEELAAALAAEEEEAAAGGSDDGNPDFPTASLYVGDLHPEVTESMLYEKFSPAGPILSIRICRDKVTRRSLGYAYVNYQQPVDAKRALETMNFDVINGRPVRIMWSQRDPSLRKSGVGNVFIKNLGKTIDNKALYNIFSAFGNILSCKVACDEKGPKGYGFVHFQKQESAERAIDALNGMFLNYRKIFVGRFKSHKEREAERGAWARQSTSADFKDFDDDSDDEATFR
UUUAUGC: -0.142
CCUCCGA: -0.322
UAUAUCU: -0.151
UACGACC: -0.246
GGCCUGU: -0.146
GAUUUUC: -0.387
CCACGCU: -0.237

Mixed results
PhoQ, residues 284 288 289 292 302 303 SLGVVW
fold induction (PhoP, residues 12 14 15 18 19 HEGLL (Escherichia coli, UniProt P23836); Sort-seq, item: YFP reporter; E. coli; PhoQ-PhoP variant library, added: 10 µM Mg2+; reference: high Mg2+ state, higher = stronger signaling): 18.3

For quick reference, copied from above (block 1):
AAAATGGC: 0.0653
